Results pooled from the literature.
A part holds a random share of what one study measured. ± gives the spread as reported.
Chain of UniProt O75676 (whole entry, looked up): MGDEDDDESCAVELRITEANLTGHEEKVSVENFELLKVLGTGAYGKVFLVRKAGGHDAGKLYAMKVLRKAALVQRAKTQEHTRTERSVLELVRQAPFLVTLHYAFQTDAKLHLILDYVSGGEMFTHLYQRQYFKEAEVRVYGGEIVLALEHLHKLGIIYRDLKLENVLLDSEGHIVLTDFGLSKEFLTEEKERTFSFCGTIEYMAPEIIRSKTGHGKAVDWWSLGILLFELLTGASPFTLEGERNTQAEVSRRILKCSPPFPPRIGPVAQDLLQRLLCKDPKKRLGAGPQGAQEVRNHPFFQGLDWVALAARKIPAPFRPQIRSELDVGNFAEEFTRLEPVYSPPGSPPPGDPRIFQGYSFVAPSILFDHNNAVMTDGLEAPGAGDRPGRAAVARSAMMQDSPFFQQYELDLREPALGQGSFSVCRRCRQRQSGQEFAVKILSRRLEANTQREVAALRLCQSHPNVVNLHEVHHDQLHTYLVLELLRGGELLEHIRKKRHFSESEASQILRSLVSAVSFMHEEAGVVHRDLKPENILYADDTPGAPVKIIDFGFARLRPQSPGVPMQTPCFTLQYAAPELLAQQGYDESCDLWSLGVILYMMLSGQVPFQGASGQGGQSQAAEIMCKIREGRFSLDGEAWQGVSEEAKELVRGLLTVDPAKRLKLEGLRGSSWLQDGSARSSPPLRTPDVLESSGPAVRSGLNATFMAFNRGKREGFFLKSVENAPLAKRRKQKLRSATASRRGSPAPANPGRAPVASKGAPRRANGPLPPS
Chain of UniProt P49674 (whole entry, looked up): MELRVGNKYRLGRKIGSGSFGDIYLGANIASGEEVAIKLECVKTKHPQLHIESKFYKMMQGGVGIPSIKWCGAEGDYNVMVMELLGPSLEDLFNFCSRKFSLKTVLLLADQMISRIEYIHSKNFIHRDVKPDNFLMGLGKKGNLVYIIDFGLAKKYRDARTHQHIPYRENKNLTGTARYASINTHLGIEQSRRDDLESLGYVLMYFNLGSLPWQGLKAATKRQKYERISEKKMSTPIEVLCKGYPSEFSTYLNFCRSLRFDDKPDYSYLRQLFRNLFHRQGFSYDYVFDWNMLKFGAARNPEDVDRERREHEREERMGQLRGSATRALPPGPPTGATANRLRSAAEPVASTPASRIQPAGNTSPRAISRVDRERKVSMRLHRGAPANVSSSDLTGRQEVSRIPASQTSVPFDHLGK
Chain of UniProt Q9NYY3 (whole entry, looked up): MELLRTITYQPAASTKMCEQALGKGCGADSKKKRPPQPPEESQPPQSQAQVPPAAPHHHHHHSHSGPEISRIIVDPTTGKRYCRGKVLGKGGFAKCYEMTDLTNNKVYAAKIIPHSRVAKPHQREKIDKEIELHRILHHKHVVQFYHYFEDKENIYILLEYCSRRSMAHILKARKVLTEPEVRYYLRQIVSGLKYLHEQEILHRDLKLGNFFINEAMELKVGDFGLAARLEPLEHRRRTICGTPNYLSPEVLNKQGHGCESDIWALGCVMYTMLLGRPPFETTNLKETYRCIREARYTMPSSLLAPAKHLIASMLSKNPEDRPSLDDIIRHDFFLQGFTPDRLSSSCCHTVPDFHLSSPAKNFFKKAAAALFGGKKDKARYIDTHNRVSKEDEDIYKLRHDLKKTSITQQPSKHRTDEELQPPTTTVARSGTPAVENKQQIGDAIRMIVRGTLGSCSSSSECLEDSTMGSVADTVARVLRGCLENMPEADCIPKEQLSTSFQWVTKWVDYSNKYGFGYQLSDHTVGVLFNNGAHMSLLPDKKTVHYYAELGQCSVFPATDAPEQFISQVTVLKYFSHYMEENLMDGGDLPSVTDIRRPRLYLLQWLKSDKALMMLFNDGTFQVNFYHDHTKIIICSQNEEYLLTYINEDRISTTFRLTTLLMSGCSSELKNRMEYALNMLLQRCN
Chain of UniProt Q9UM73 (whole entry, unmodified, looked up): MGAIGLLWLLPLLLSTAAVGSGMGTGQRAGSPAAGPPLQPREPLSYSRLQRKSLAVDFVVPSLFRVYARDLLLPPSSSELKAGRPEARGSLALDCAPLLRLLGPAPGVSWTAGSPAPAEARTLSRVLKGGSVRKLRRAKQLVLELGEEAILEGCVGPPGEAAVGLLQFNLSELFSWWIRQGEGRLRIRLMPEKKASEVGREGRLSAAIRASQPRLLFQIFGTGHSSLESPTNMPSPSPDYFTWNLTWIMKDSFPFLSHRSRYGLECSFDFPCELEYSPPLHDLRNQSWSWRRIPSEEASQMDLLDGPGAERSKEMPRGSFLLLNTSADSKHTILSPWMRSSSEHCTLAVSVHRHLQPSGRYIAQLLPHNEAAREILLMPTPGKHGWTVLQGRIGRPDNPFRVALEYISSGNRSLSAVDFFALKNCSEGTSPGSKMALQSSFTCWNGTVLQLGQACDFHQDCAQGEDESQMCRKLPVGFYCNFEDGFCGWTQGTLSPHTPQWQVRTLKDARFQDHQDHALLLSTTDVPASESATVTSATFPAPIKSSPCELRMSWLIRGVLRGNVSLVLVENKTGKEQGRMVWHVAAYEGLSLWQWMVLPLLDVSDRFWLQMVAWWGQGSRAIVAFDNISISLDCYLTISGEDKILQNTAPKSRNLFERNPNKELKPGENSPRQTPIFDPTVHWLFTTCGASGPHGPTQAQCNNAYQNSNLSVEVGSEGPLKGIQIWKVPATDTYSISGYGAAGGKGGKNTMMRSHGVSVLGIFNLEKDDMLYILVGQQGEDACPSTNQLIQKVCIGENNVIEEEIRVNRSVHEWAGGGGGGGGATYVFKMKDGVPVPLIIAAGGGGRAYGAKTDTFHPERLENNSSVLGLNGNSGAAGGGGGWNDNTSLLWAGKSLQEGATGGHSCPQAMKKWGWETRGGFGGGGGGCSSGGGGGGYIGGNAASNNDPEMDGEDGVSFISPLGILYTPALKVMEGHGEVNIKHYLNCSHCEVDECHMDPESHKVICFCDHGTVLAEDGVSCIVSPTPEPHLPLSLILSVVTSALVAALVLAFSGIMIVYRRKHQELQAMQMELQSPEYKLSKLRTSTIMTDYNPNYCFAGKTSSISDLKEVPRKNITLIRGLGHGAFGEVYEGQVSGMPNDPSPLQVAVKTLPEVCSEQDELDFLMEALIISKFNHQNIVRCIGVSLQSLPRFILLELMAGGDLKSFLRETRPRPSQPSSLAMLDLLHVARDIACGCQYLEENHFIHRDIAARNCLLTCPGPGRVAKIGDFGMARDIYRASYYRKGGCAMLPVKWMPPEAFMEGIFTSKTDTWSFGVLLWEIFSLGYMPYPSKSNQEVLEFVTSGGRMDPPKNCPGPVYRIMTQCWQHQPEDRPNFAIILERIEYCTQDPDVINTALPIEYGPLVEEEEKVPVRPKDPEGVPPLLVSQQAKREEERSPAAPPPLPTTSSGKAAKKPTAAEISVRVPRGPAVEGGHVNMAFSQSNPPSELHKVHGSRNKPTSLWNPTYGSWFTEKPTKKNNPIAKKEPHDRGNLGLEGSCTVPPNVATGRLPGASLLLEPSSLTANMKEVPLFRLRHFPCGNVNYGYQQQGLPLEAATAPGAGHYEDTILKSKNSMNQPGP
Chain of UniProt Q8N568 (whole entry, looked up): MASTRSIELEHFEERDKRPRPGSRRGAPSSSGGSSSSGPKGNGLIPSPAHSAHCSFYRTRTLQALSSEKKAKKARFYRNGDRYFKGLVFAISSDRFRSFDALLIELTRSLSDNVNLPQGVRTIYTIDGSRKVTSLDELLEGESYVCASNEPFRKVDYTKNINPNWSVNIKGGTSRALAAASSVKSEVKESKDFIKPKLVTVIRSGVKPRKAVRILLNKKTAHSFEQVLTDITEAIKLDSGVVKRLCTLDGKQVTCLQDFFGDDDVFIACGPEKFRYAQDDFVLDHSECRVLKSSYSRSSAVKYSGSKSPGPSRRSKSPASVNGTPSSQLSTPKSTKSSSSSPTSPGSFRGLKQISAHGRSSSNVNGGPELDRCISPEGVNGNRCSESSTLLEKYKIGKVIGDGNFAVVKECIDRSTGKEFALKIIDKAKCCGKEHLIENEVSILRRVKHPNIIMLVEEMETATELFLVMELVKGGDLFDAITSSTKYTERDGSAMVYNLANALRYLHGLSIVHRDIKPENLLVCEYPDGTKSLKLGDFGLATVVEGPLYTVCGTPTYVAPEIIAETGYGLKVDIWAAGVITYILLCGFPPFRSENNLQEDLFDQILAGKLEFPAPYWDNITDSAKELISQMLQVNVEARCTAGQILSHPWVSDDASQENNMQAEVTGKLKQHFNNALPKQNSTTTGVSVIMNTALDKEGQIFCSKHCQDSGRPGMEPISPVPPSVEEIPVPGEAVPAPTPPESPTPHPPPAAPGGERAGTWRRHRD
Chain of UniProt Q13554 (whole entry, looked up): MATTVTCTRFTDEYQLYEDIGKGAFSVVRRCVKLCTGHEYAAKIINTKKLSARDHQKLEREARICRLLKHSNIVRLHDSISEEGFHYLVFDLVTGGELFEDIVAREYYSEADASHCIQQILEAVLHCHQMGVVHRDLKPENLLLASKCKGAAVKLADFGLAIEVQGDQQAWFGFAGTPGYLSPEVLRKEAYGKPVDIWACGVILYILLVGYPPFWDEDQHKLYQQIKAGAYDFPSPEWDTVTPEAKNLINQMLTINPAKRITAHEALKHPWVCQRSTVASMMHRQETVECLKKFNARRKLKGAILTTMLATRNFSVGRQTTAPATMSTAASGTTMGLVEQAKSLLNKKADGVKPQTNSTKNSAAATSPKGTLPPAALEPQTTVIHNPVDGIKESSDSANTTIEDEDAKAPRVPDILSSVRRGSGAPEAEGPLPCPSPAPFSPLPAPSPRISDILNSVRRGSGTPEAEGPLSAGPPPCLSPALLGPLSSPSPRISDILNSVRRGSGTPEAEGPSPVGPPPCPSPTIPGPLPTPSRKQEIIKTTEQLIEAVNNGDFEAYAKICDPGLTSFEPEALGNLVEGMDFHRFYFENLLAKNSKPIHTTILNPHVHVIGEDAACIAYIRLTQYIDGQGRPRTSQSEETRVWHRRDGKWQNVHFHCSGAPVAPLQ

Study 1 — read-out: enzyme activity; mode: inhibitor; tested at: 0.5 µM; relative to: control
SMILES: N#C/C(=C(/N)SC1C=CC=CC1)c1cccc(C(O)c2ccncc2)c1 (stereo not shown)
The remaining activity was 102% (PAK3 (Homo sapiens, UniProt O75914)).
DCLK2 (Homo sapiens, UniProt Q8N568) — remaining activity: 97.1%.
It gave 92.3% for remaining activity (MAP2K1 (Homo sapiens, UniProt Q02750)).
For MET (Homo sapiens, UniProt P08581): remaining activity read 109%.
It gave 94% for remaining activity (PLK3 (Homo sapiens, UniProt Q9H4B4)).
The remaining activity was 92.2% (DDR2 (Homo sapiens, UniProt Q16832)).
The remaining activity was 94% (MAPK11 (Homo sapiens, UniProt Q15759)).
MARK4 (Homo sapiens, UniProt Q96L34) — remaining activity: 101%.
CLK3 (Homo sapiens, UniProt P49761) — remaining activity: 102%.
It gave 97.7% for remaining activity (GRK4 (Homo sapiens, UniProt P32298)).
Cyclin-dependent kinase 9, with cyclin K (CDK9, Homo sapiens, UniProt P50750) — remaining activity: 87%.
It gave 92.2% for remaining activity (TXK (Homo sapiens, UniProt P42681)).
NEK3 (Homo sapiens, UniProt P51956) — remaining activity: 102%.
MINK1 (Homo sapiens, UniProt Q8N4C8) — remaining activity: 94.9%.
AKT2 (Homo sapiens, UniProt P31751) — remaining activity: 103%.
RPS6KA4 (Homo sapiens, UniProt O75676) — remaining activity: 109%.
The remaining activity was 95.5% (CLK4 (Homo sapiens, UniProt Q9HAZ1)).
It gave 86.9% for remaining activity (MAPK14 (Homo sapiens, UniProt Q16539)).
The remaining activity was 103% (CAMK4 (Homo sapiens, UniProt Q16566)).
For KDR (Homo sapiens, UniProt P35968): remaining activity read 100%.
It gave 110% for remaining activity (PRKG2 (Homo sapiens, UniProt Q13237)).
Cyclin-dependent kinase 1, with cyclin A (CDK1, Homo sapiens, UniProt P06493) — remaining activity: 90.8%.
The remaining activity was 102% (ROCK1 (Homo sapiens, UniProt Q13464)).

Study 2 — technique: competition with immobilised ligand; tested at: 1 µM
SMILES: O=S(=O)(NC1CCC(c2cc(F)ccc2F)(S(=O)(=O)c2ccc(Cl)cc2)CC1)C(F)(F)F (stereo not shown)
For VRK2 (Homo sapiens, UniProt Q86Y07); cell-free assay: remaining binding read 100%.
The remaining binding was 100% (ABL2 (Homo sapiens, UniProt P42684); cell-free assay).
The remaining binding was 87% (Tyrosine-protein kinase ABL1, phosphorylated (ABL1, Homo sapiens, UniProt P00519); cell-free assay).
The remaining binding was 0% (LATS2 (Homo sapiens, UniProt Q9NRM7); binding).
It gave 87% for remaining binding (EIF2AK2 (Homo sapiens, UniProt P19525); cell-free assay).
CAMK2B (Homo sapiens, UniProt Q13554); cell-free assay — remaining binding: 97%.
CDK14 (Homo sapiens, UniProt O94921); cell-free assay — remaining binding: 100%.
The remaining binding was 85% (CSNK1E (Homo sapiens, UniProt P49674); cell-free assay).
For ALK (Homo sapiens, UniProt Q9UM73, C1156Y); cell-free assay: remaining binding read 100%.
Tyrosine-protein kinase ABL1, phosphorylated (ABL1, Homo sapiens, UniProt P00519, Y253F); cell-free assay — remaining binding: 100%.

Study 3 — sample: plasma; route: oral
Structure (SMILES): COc1ccc(-c2c(Nc3ccccn3)[nH]c3c(C4=CCCCC4)c(-c4ccccc4)nn3c2=O)cc1
LC-MS/MS; human; 200 mg twice daily, 2 h — “plasma concentration, mean”: 13.2 µg/mL.
cancer patients; 100 mg, 4 h post-dose, single dose — “plasma concentration, mean”: 1.13 µg/mL.
It gave 3.71 µg/mL for “plasma concentration, mean” (human patients; 400 mg once daily, 2 h, cycle 1).
human patients; 150 mg once daily, 24 h, cycle 1 — “plasma concentration, mean”: 4.58 µg/mL.
For LC-MS/MS; human; 200 mg twice daily, 0 h: “plasma concentration, mean” read 11.4 µg/mL.
For LC-MS/MS; human; 200 mg twice daily, 48 h, single dose: “plasma concentration, mean” read 0.642 µg/mL.
The “plasma concentration, mean” was 0 µg/mL (cancer patients; 50 mg, 0 h post-dose, single dose).

Study 4
Structure (SMILES): CC(C)CCN1c2nc(Nc3cc(F)c(O)c(F)c3)ncc2N(C)C(=O)C1C (stereo not shown)
It gave 0.0084 µM for Kd (PLK2 (Homo sapiens, UniProt Q9NYY3)).
It gave 0.07 µM for Kd (CSNK1E (Homo sapiens, UniProt P49674)).
The Kd was 0.065 µM (BMPR2 (Homo sapiens, UniProt Q13873)).
The Kd was 1.3 µM (CAMKK1 (Homo sapiens, UniProt Q8N5S9)).
It gave 3.55 ± 0.178 µM for Kd (Bromodomain-containing protein 4, BD1 (BRD4, Homo sapiens, UniProt O60885); ITC; 15 °C).
RPS6KA4 (Homo sapiens, UniProt O75676) — Kd: 0.3 µM.
